Assay results pooled from the literature.
Each line is one published result; not all experiments were run side by side. Numbers after ± are the reported error.
SIRT5: NAD-dependent protein deacylase sirtuin-5, mitochondrial (SIRT5, Homo sapiens, UniProt Q9NXA8)
Sequence of UniProt Q9NXA8 (whole entry, looked up): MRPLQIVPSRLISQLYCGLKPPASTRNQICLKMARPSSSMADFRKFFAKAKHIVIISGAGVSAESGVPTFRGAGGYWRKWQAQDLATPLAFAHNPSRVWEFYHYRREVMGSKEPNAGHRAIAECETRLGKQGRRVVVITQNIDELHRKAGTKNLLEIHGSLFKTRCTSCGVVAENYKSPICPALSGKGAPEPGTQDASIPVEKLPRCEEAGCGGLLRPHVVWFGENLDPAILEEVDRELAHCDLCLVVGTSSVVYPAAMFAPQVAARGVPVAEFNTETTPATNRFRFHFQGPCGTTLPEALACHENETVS
lasR: Transcriptional activator protein LasR (lasR, Pseudomonas aeruginosa, UniProt P25084)
Sequence of UniProt P25084 (whole entry, looked up): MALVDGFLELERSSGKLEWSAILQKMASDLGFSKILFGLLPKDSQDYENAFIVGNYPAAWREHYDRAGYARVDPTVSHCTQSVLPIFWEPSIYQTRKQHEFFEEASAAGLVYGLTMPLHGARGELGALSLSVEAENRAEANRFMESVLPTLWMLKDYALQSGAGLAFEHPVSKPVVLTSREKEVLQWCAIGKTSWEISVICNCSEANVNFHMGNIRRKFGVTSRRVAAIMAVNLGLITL
blaNDM-1: Metallo-beta-lactamase type 2 (blaNDM-1, Klebsiella pneumoniae, UniProt C7C422)
Sequence of UniProt C7C422 (whole entry, looked up): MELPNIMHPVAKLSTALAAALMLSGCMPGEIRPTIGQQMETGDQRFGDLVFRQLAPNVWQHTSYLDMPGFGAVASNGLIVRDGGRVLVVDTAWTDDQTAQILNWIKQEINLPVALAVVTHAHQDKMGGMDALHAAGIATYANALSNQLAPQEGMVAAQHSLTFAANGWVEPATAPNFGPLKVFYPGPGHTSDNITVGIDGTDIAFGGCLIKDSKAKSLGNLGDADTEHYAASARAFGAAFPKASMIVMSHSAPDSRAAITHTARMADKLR
Formate-nitrite transporter: Formate-nitrite transporter (Plasmodium falciparum, UniProt O77389)
Sequence of UniProt O77389 (whole entry, looked up): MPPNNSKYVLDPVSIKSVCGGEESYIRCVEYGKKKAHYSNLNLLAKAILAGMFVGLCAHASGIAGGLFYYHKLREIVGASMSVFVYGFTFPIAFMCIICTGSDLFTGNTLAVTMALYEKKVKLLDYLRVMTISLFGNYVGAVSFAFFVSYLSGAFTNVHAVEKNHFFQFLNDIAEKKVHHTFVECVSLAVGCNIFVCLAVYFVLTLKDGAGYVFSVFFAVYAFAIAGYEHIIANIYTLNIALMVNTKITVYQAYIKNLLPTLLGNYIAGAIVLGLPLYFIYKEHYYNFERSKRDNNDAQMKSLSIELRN
SIRT2: NAD-dependent protein deacetylase sirtuin-2 (SIRT2, Homo sapiens, UniProt Q8IXJ6)
Sequence of UniProt Q8IXJ6 (whole entry, looked up): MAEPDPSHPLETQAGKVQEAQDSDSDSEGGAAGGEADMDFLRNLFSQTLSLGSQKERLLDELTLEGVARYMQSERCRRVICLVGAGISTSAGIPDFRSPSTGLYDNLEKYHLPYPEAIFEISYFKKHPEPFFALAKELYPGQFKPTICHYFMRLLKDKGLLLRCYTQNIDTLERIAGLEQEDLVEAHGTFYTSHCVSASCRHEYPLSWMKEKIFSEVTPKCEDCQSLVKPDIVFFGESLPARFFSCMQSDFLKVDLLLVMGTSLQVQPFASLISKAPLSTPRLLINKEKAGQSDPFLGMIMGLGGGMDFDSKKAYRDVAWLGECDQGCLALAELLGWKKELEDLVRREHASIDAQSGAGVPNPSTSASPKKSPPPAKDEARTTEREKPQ
Sequence of UniProt Q7Z3E1 (whole entry, looked up): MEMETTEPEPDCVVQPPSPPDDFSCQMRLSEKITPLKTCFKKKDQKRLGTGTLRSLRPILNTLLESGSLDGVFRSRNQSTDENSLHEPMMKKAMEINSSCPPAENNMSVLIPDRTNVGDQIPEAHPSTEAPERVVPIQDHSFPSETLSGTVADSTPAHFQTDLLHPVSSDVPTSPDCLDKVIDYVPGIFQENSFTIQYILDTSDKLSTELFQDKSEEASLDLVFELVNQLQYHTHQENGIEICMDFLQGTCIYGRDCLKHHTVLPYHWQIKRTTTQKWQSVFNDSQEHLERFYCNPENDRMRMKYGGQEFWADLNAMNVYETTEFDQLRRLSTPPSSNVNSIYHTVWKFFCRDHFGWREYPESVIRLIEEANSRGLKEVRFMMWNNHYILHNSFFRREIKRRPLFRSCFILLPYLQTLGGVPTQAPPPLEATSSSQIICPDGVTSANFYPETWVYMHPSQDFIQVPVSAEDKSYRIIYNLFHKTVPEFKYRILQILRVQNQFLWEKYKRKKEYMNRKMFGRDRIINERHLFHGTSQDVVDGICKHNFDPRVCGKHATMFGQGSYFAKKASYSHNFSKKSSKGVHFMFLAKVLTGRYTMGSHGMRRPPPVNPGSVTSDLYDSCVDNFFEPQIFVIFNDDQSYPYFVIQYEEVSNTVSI
Sequence of UniProt P19490 (whole entry, looked up): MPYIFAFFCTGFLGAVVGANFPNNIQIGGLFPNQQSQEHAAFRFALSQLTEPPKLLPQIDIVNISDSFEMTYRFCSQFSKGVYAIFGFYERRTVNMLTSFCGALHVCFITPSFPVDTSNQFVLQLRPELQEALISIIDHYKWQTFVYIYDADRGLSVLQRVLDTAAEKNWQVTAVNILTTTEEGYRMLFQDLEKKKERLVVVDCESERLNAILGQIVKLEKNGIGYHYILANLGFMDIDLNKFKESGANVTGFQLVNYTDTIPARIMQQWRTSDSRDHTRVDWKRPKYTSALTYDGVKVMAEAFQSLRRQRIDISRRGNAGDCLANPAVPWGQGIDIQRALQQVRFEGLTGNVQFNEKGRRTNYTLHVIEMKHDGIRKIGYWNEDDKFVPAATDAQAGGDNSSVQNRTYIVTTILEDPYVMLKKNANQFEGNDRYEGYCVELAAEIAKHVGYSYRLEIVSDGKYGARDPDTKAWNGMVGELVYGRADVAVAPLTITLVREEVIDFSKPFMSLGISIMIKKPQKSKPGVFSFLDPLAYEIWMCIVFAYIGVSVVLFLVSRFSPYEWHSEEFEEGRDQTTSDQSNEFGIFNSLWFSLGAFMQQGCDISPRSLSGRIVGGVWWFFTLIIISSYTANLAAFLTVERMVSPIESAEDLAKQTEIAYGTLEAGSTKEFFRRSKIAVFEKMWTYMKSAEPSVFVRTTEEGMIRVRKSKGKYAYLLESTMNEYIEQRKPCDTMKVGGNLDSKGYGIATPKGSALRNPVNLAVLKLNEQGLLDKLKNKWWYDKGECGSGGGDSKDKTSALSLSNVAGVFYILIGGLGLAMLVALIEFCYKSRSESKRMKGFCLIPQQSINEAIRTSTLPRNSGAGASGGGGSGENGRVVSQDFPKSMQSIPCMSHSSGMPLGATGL
Sequence of UniProt P10632 (whole entry, looked up): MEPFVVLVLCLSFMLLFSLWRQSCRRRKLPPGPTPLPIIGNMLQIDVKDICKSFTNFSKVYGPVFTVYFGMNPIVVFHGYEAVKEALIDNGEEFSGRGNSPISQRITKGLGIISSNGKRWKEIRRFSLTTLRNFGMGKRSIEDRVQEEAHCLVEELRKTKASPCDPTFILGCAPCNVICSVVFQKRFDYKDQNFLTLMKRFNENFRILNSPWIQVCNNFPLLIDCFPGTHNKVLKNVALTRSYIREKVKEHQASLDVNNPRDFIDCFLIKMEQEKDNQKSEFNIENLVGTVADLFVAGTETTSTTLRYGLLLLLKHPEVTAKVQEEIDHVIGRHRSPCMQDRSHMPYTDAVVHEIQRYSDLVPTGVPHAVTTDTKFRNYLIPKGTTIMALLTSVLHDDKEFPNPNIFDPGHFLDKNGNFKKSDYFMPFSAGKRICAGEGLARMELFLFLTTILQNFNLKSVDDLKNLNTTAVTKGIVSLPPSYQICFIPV
Sequence of UniProt P23141 (whole entry, looked up): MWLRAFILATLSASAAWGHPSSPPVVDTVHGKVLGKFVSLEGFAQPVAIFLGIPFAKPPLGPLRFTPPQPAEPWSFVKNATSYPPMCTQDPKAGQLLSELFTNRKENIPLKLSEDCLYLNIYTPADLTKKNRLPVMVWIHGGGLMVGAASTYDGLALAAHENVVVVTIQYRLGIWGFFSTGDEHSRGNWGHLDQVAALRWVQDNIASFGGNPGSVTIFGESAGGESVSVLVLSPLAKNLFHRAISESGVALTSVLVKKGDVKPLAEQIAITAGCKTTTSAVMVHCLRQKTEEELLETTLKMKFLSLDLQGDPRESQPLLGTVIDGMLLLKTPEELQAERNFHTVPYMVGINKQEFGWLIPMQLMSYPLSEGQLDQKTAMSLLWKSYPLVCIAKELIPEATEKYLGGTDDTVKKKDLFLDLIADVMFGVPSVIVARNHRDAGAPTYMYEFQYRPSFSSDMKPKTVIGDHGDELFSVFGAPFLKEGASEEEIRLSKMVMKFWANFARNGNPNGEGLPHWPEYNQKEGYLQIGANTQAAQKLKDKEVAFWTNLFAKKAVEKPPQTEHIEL
Sequence of UniProt Q99436 (whole entry, looked up): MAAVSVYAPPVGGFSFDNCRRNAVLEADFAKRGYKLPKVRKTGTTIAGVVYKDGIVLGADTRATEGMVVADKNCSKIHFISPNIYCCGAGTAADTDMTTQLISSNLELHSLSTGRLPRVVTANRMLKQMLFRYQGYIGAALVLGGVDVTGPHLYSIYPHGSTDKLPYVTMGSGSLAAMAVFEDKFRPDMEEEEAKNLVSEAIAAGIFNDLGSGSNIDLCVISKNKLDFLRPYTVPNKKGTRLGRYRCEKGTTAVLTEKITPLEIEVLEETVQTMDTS
Sequence of UniProt P0A6M2 (whole entry, unmodified, looked up): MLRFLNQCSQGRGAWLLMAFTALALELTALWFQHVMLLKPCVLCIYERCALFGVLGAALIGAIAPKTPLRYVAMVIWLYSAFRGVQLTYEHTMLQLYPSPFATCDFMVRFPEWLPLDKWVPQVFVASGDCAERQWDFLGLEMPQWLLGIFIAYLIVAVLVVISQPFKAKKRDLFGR
Sequence of UniProt O60911 (whole entry, looked up): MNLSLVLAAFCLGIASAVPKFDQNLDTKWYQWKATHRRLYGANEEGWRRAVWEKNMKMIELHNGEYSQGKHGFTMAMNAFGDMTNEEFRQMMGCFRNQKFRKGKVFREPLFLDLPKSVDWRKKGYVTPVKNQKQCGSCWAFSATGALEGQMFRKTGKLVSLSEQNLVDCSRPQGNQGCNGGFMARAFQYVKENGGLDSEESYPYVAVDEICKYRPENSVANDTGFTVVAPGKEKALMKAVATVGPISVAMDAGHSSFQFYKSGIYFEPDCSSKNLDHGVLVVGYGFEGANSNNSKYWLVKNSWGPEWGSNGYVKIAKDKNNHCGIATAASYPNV

SMILES	target or system	test	test system	setting	scale	measurement	result
C#CCNC(=O)c1ccc(S(=O)(=O)N[C@@H](CCCCNC(=O)c2cncc(OS(=O)(=O)F)c2)C(=O)N[C@@H](CCCNC(=N)N)C(=O)NC2CCC2)cc1	SIRT5	inhibitor, fluorogenic		pre-incubation 16 h, added: NAD+ 500 µM		IC50	9000 ± 3100 nM
CCCCCC(=O)CC(=O)N[C@H]1CCOC1=O	lasR	reporter gene, antagonist	Escherichia coli, JLD271 with LasR plasmid	added: OdDHL 5 nM		IC50	200 nM
CCN(C)C(=O)Oc1ccccc1/C=C1\Cc2cc(OC)c(OC)cc2C1=O	DPP4 (Homo sapiens, UniProt P27487)	enzyme activity, inhibitor	human serum	added: GP-BAN substrate		IC50	> 10000 nM
O=C(Nc1nccs1)c1c(O)c2c(n(Cc3ccccc3)c1=O)CCCC2	Uncharacterized protein (Trypanosoma brucei brucei, UniProt Q386Q8)	enzyme activity, inhibitor, coupled colorimetric		added: E. coli pyrophosphatase coupling		IC50	61100 nM
O=C1CCN1c1cccc(O)c1	Uncharacterized hydrolase SAUSA300_2518 (Staphylococcus aureus, UniProt Q2FDS6)	enzyme activity, inhibitor				IC50	> 50000 nM
O=C(CCc1ccc(Br)cc1)N[C@H]1CCOC1=O	lasR	reporter gene, antagonist	Escherichia coli, JLD271 with LasR plasmid	added: OdDHL 2 nM		IC50	310 nM
CC[C@H](C)[C@H](NC(=O)[C@H](CCC(=O)O)NC(=O)[C@H](C)NC(=O)[C@@H](NC(=O)[C@H](Cc1c[nH]cn1)NC(=O)[C@@H](NC(=O)[C@H](CCC(=O)O)NC(=O)[C@H](C)NC(=O)[C@@H](NC(=O)[C@H](CC(C)C)NC(=O)[C@H](Cc1c[nH]cn1)NC(=O)[C@H](Cc1c[nH]cn1)NC(=O)[C@H]1CCC[C@@H]1NC(=O)[C@H](Cc1ccccc1)NC(=O)[C@H](Cc1ccccc1)NC(=O)[C@H](CCCNC(=N)N)NC(=O)[C@H](CCCNC(=N)N)NC(=O)[C@H](CCCNC(=N)N)NC(=O)[C@H](CC(C)C)NC(=O)[C@H](CC(=O)O)NC(=O)[C@H](CCC(N)=O)NC(=O)[C@@H](NC(=O)[C@H](CO)NC(=O)[C@H](CCCCN)NC(=O)CNC(=O)[C@H](CCCCN)NC(=O)[C@H](CC(=O)O)NC(=O)[C@H](Cc1c[nH]cn1)NC(=O)[C@H](CC(C)C)NC(=O)[C@H](CC(C)C)NC(=O)[C@H](CCC(N)=O)NC(=O)[C@H](Cc1c[nH]cn1)NC(=O)[C@H](CCC(=O)O)NC(=O)[C@H](CO)NC(=O)[C@@H](NC(=O)[C@H](C)N)C(C)C)[C@@H](C)CC)[C@@H](C)CC)[C@@H](C)CC)[C@@H](C)O)C(N)=O	PTH1R (Homo sapiens, UniProt Q03431)	ligand displacement, radioligand		cell membranes		IC50	15.5 nM
CCc1nnc(-c2c(OC)cc(-c3cnc4cc(-c5cnn(C)c5)ccn34)cc2OC)o1	CYP2C19 (Homo sapiens, UniProt P33261)	enzyme activity, inhibitor				IC50	> 10000 nM
CC[C@H](C)[C@H](N)C(=O)N[C@@H](CCCNC(=N)N)C(=O)N[C@@H](CCC(N)=O)C(=O)N[C@@H](CCC(=O)O)C(=O)N[C@@H](CCC(=O)O)C(=O)N[C@H](C(=O)N[C@@H](CCC(N)=O)C(=O)N[C@@H](CCC(=O)O)C(=O)N[C@@H](CC(C)C)C(=O)O)C(C)C	HLA class I histocompatibility antigen, A alpha chain, allele A*02:01 (Homo sapiens, UniProt P04439)	peptide-MHC binding, radioligand competition binding				IC50	> 70000 nM
COc1ccccc1-c1n[nH]c2nc(NC3CCN(C(=O)Cc4ccc(F)cc4F)CC3)ncc12		bead binding, competition bead pull-down, measured: LINJ.23.0220	Leishmania donovani extract	10 µM	baseline: vehicle	relative abundance	1.07
CS(C)(=O)=Nc1ccc(-c2ccc(-c3nc4cc(O[C@@H]5CO[C@H]6[C@@H]5OC[C@H]6O)[nH]c4cc3F)cc2)cc1	MAPK14 (Homo sapiens, UniProt Q16539)	enzyme activity, inhibitor		10 µM		inhibition	2%
CCSc1cnn(-c2ccccc2)c(=O)c1Cl	Disulfide bond formation protein B (Escherichia coli, UniProt P0A6M2, C49V/C8A)	enzyme activity, inhibitor				IC50	9120 to 16000 nM
CC(C)C[C@H]1NC(=O)[C@@H]2CCCN2C(=O)[C@@H](CS)NC(=O)[C@@H](C(C)C)NC(=O)[C@H](CO)NC(=O)[C@H](CCC(=O)O)NC(=O)[C@@H](CCCNC(=N)N)NC(=O)[C@H](C)NC1=O	blaNDM-1	enzyme activity, inhibitor, absorbance				IC50	471000 nM
CC(=O)Nc1ccc(C(=O)C=C(O)C(F)(F)C(F)(F)F)cn1	Formate-nitrite transporter	L-lactate transport, inhibitor, fluorescence	yeast	pH 6.8, added: L-lactate 1 mM		IC50	250 ± 20 nM
O=C(c1cc(Cc2n[nH]c(=O)c3ccccc23)ccc1F)N1CC(CNC2CC2)C1	TIPARP (Homo sapiens, UniProt Q7Z3E1)	enzyme activity, inhibitor				IC50	> 10000 nM
O=C(C=C(O)C(F)(F)C(F)(F)F)c1ccc(NCc2ccccc2)nc1	Formate-nitrite transporter	L-lactate transport, inhibitor, fluorescence	yeast	pH 6.8, added: L-lactate 1 mM		IC50	66 ± 11 nM
CC(C)(C)C(=O)OCOP(=O)(OCOC(=O)C(C)(C)C)C1CCCN(O)C1=O (centres unmarked)	OVCAR-5					log TGI	-4.2 log M
C#CCNC(=O)c1ccc(S(=O)(=O)N[C@@H](CCCCNC(C)=S)C(=O)N[C@@H](CC2CCCCC2)C(=O)N[C@@H](CCCNC(=N)N)C(=O)N[C@@H](CC2CCCCC2)C(=O)N[C@H](CCCCN)C(N)=O)cc1	SIRT2	enzyme activity, inhibitor, fluorescence				IC50	1620 nM
CC(C)C[C@H](NC(=O)[C@H]1O[C@@H]1C(=O)O)C(=O)NCCCCN=C(N)N	Cathepsin L2 (CTSV, Homo sapiens, UniProt O60911)	enzyme activity, inhibitor				IC50	10.3 nM
CC(C)(C)Nc1ccc(C(=O)C=C(O)C(F)(F)C(F)(F)F)cn1	Formate-nitrite transporter	L-lactate transport, inhibitor, fluorescence	yeast	pH 6.8, added: L-lactate 1 mM		IC50	1100 ± 252 nM
CCCCCCCCCC(=O)CC(=O)NC1CCCCC1=O (centres unmarked)	lasR	reporter gene, antagonist	Escherichia coli, JLD271 with LasR plasmid	added: OdDHL 2 nM		IC50	no inhibition

SMILES	target or system	test	test system	setting	scale	measurement	result
COC(=O)Cc1cc2c(cc1C(=O)c1cccc(Br)c1)OCO2	Gria1 (Rattus norvegicus, UniProt P19490)	ion current, patch clamp				IC50	5430 nM
CCCC[C@@H]1NC(=O)[C@@H](CCC(N)=O)NC(=O)[C@H]2CCCN2C(=O)[C@H](Cc2c[nH]c3ccccc23)NC(=O)[C@@H]2C[C@@H](O)CN2C(=O)[C@H](Cc2ccccc2CN)NC(=O)[C@@H]2CCCN2C(=O)[C@@H](CS)NC1=O	blaNDM-1	enzyme activity, inhibitor, absorbance				IC50	27900 nM
CNC(=S)NCCCC[C@H](NC(=O)CCc1ccccc1)C(=O)N[C@@H](CCCNC(=N)N)C(=O)N[C@@H](CC1CCCCC1)C(=O)N[C@H](CCCCN)C(=O)N[C@@H](CC1CCCCC1)C(N)=O	SIRT2	enzyme activity, inhibitor, fluorescence				IC50	440 nM
CCCCCCCCCCCCCCCCCC(=O)NC[C@H]1CC[C@H](C(=O)N[C@@H](CCC(=O)NCCCOCCOCCOCCCNC(=O)COCC(=O)N[C@@H](Cc2ccc(O)cc2)C(=O)NC(C)(Cc2ccccc2)C(=O)N[C@@H](CC(C)C)C(=O)N[C@@H](CCCC)C(=O)N[C@@H](CCCNC(=N)N)C(=O)N2CCC[C@H]2C(=O)N[C@@H](CCCNC(=N)NC)C(=O)N[C@@H](CC(N)=O)C(N)=O)C(=O)O)CC1 (some centres unmarked)	Neuromedin-U receptor 2 (Mus musculus, UniProt Q8BZ39)	ligand displacement, radioligand		cell membranes		IC50	0.26 nM
CN(C)[C@H]1C[C@@]23CC[C@@]4(O2)C(=CC[C@]2(C)[C@@H](c5ccc6ccncc6c5)CC[C@H]24)C=C3[C@@H](O)[C@@H]1O	SMG1 (Homo sapiens, UniProt Q96Q15)	ATP probe labelling, inhibitor, KiNativ profiling		1 µM		inhibition	5.6%
C#CCNC(=O)c1ccc(S(=O)(=O)N[C@@H](CCCCNC(=O)c2cncc(OS(=O)(=O)F)c2)C(=O)N[C@@H](Cc2c[nH]c3ccccc23)C(=O)NC2CCC2)cc1	SIRT5	inhibitor, fluorogenic		4 h preincubation, His-tagged enzyme 150 nM, added: NAD+ 500 µM		IC50	40000 ± 14000 nM
O=[N+]([O-])c1ccc(OP(=O)(O)Oc2ccc([N+](=O)[O-])cc2)cc1	CES1 (Homo sapiens, UniProt P23141)	enzyme activity, inhibitor				IC50	230 nM
OC[C@@H]1[C@@H](O)[C@H](O)[C@@H](O)[C@@H]2N[C@H]12	Oligosaccharide 4-alpha-D-glucosyltransferase (agd31B, Cellvibrio japonicus, UniProt B3PEE6)	enzyme activity, inhibitor		30 min preincubation, pH 6.5, 25 °C		IC50	> 100000 nM
CC(C)C[C@H](NC(=O)[C@H](Cc1ccc(CN)cc1)NC(=O)[C@H](Cc1ccccc1)N=[N+]=[N-])C(=O)N[C@@H](CC1CCC(C2CCCCC2)CC1)C(=O)[C@@]1(C)CO1 (some centres unmarked)	PSMB7 (Homo sapiens, UniProt Q99436)	inhibitor, competitive ABPP	Raji cell lysate	constitutive proteasome β2c		IC50	2330 nM
O=C(Nc1ccc(-c2ccccc2)cc1)N[C@H]1[C@H]([C@H](O)[C@H](O)CO)OC(C(=O)O)=C[C@@H]1O	Sialidase-1 (NEU1, Homo sapiens, UniProt Q99519)	enzyme activity, inhibitor				IC50	> 500000 nM
Cc1ccc2c(n1)c(-c1cccc(S(C)(=O)=O)c1)c(C)n2C/C(F)=C/CN	Cytochrome P450 2C8 (CYP2C8, Homo sapiens, UniProt P10632)	enzyme activity, inhibitor	human, liver microsomes			IC50	2300 nM
Cc1nc(N2CCC(N(C)c3cc(C(=O)NCCN4CCCC4)cnn3)CC2)nc(C)c1CC(C)C	Cytochrome P450 2C9 (CYP2C9, Homo sapiens, UniProt P11712)	enzyme activity, inhibitor				IC50	> 30000 nM
CCN(CC)c1ccc(C(=O)C=C(O)C(F)(F)C(F)(F)F)cn1	Formate-nitrite transporter	L-lactate transport, inhibitor, fluorescence	yeast	pH 6.8, added: L-lactate 1 mM		IC50	228 ± 18 nM
N[C@H](C(=O)N1CCCC1)C1CCN(c2nccc3c(-c4ncc(Cl)cc4Cl)cccc23)CC1	PADI2 (Homo sapiens, UniProt Q9Y2J8)	inhibitor, GDH-coupled		added: Ca2+ 0.25 mM		IC50	28.5 nM
CSCC[C@@H]1NC(=O)[C@@H](CCCNC(=N)N)NC(=O)[C@H](CC(=O)O)NC(=O)[C@H]2CCCN2C(=O)[C@@H]([C@H](C)O)NC(=O)[C@H](C(C)C)NC(=O)[C@@H]2CCCN2C(=O)[C@@H](CS)NC1=O	blaNDM-1	enzyme activity, inhibitor, absorbance				IC50	25600 nM
O=C1NC2(CC2)COc2ncc(F)cc2[C@H]2COCCN2c2ccn3ncc1c3n2			Sprague-Dawley rat, male, serum	oral, 10 mg/kg/day, end of recovery, 4-week subacute toxicity		serum urea	4.25 ± 0.54 mmol/L
O=C(C=C(O)C(F)(F)C(F)(F)F)c1ccc(NCC(F)(F)F)nc1	Formate-nitrite transporter	L-lactate transport, inhibitor, fluorescence	yeast	pH 6.8, added: L-lactate 1 mM		IC50	215 ± 39 nM
CC1(C)[C@@H]2Cc3nc4c(cc3[C@H]1C2)/C(=C1/c2cc3c(nc2-c2c1cc1c([n+]2[Au-][P+](c2ccccc2)(c2ccccc2)c2ccccc2)C[C@@H]2C[C@H]1C2(C)C)C[C@@H]1C[C@H]3C1(C)C)c1cc2c([n+]([Au-][P+](c3ccccc3)(c3ccccc3)c3ccccc3)c1-4)C[C@@H]1C[C@H]2C1(C)C.O=S(=O)(O)C(F)(F)F.O=S(=O)(O)C(F)(F)F	Txnrd1 (Rattus norvegicus, UniProt O89049)	enzyme activity, inhibitor				IC50	20 ± 2 nM
N=C(N)NCCC[C@H](NC(=O)[C@H](CCCCNC(=O)c1cncc(OS(=O)(=O)F)c1)NC(=O)CCC[P+](c1ccccc1)(c1ccccc1)c1ccccc1)C(=O)NC1CCC1	SIRT5	inhibitor, fluorogenic		0 h preincubation, non-tagged enzyme 150 nM, added: NAD+ 500 µM		IC50	> 200000 nM
COCCCNc1ccc(C(=O)C=C(O)C(F)(F)C(F)(F)F)cn1	Formate-nitrite transporter	L-lactate transport, inhibitor, fluorescence	yeast	pH 6.8, added: L-lactate 1 mM		IC50	59 ± 10 nM

A few entries again:
SMILES	target or system	test	test system	setting	scale	measurement	result
O=[N+]([O-])c1ccc(OP(=O)(O)Oc2ccc([N+](=O)[O-])cc2)cc1	CES1 (Homo sapiens, UniProt P23141)	enzyme activity, inhibitor				IC50	230 nM
Cc1ccc2c(n1)c(-c1cccc(S(C)(=O)=O)c1)c(C)n2C/C(F)=C/CN	Cytochrome P450 2C8 (CYP2C8, Homo sapiens, UniProt P10632)	enzyme activity, inhibitor	human, liver microsomes			IC50	2300 nM
COC(=O)Cc1cc2c(cc1C(=O)c1cccc(Br)c1)OCO2	Gria1 (Rattus norvegicus, UniProt P19490)	ion current, patch clamp				IC50	5430 nM
C#CCNC(=O)c1ccc(S(=O)(=O)N[C@@H](CCCCNC(=O)c2cncc(OS(=O)(=O)F)c2)C(=O)N[C@@H](CCCNC(=N)N)C(=O)NC2CCC2)cc1	SIRT5	inhibitor, fluorogenic		pre-incubation 16 h, added: NAD+ 500 µM		IC50	9000 ± 3100 nM
